Measured values from different studies.
Every numbered part comes from another study and shows a few of its results, in no order. Changes are numbered by the printed parent chain.

Study 1
Target: ABI1, truncated, D143A, DHFR fusion (Arabidopsis thaliana)
Technique: DHFR PCA, deep sequencing
Matrix: yeast
Notes: methotrexate growth selection, single substitutions
Added: (+)-ABA 0.39 µM
Relative to: wild-type fitted maximum
Reading: higher = stronger binding
Quantity: relative binding score
Starting sequence: PYL1, truncated, DHFR fusion (Arabidopsis thaliana); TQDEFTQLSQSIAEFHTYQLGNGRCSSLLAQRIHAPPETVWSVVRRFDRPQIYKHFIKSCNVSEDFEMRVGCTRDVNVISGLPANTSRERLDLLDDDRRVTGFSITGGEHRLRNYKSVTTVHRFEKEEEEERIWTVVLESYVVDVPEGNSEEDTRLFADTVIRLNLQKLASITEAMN
Variant = S140P; result = 7.57%
Variant = L166R; result = 7.76%
Variant = I79H; result = 35.4%
Variant = I133T; result = 55.5%
Variant = G108A; result = 2.31%
Variant = L169K; result = -18.5%
Variant = D96N; result = 1.93%
Variant = R69Q; result = 38.4%
Variant = T6P; result = 63%
Variant = I33D; result = -3.56%
Variant = R69G; result = 25.5%
Variant = T6E; result = 65.4%
Variant = I79N; result = 7.28%
Variant = N77D; result = 38.6%
Variant = Q51M; result = 1.84%
Variant = V136A; result = 1.09%
Variant = E67S; result = 25%
Variant = E89A; result = -11.1%
Variant = W134A; result = 17.7%
Variant = G21N; result = 31.2%
Variant = R49W; result = -7.43%
Variant = F124A; result = 18.8%
Variant = D3A; result = 40.4%
Variant = D3H; result = 37.2%
Variant = T173S; result = 29.9%

Study 2
Target: RNA binding protein fox-1 homolog 2, RRM domain, GST-SBP tag (RBFOX2, Homo sapiens, UniProt O43251-10, residues 100-194)
Technique: RNA Bind-n-Seq
Form: RNA
Matrix: in vitro
Tested at: 365 nM
Notes: natural RNA segment, single round, ends assumed
Relative to: no-protein control
Reading: higher = stronger binding
Quantity: RBNS enrichment (R)
Shared flanks, not repeated: GGGAGUUCUACAGUCCGACGAUC … UGGAAUUCUCGGGUGCCAA
Residues (chain): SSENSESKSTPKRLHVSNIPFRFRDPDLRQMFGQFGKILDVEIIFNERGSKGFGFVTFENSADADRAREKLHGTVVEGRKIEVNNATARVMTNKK
Strand = AGUUUUCUGUAGUGAUAUUGUUGAAUAUGACAGGUAAAGCAACUGUGAGGGCAAACUAGAAUUAGUAGUGAGAAACUGCUAAAGCUGAUUUGCCAUUUUACUGAAAUGGA; result = 0.478
Strand = UUCCUUCUAGUAUCCGAAGAAUCUGAGCCUUCAAUGUUAAAAUUUUUCUUAAUUAAAAUGUGCUUUAUUUCACAAAAUCAACAAAUCAAAAAGAAUAUUCAUGGCAACGU; result = 0.446
Strand = GGGUGCUGUCUGCCACUUGCUCCCUGCCAACUUUCUGGAGAGGUGCCAAACUUGGUGUGGCCAGGAAAGGGCAGUCCUGAGGGAGAAGACAGGAUUCAGGGCAGUGCUCC; result = 0.397
Strand = CAUGCAUGAGAGAGAAGUGGCUGGCCACAGCCAGAGGGAACAGUAACAGCCCAGGGGCCUUUAUUUUGGGAAAGGCUGUCCCGGGCUGUUACUGUCUCUUCUGGUUAUAA; result = 15.5
Strand = CUCUGCCUCCCGGCCUGGGCUUGUUCUCAGGUCAGCCGCUGCUUUGUUCACUAUCAGUCUGGAGUGACUCUAUCUCCAGCAGUGCUCCCUGAGUGGCAGUGUUCCCUCAU; result = 0.193
Strand = CACCCCGGUAUGAAUGUGUUUCCUCCACAUUGUAUAUCCUUCCACCCUCUGGCUGCCUAGAUCAGUAAAUAAAAUUGAUGUAAUAUAAUUUAUAAGUAACACUGUUGAAA; result = 0.607
Strand = AUUUUCUUGGUGUUCCUUUCUUCCAGCACAGUGCAAGAUAGAGUUGCUGUUGAUGCCAUAUGUUUAGACUGCUGUUCUGACCCUAUUUAUCUUUCUCUCUGCCAUUUGGA; result = 0.736
Strand = AGCAUCCUAGAGCUCACUGAGCACUGCUGAGCUUUGACACGCCAGCCACACACAGCUUGCUGCUGUCGUUCUAGCCUUGCCAGUGCACUGUAGAUGCUGGCCUGUCACUC; result = 0.337
Strand = AAAUCAGUGAAAUGUACCUUAUACUUUAAUAAAAAAUGUUUUCAGAAAUAGAUAAGUGAAAGCUGAGUGUUUCUUUGAUAGGUUCCCCUGUACUAUAGGAGUGAUAAUUG; result = 0.442
Strand = ACAUACUGGAAUAUGUUUUAACAUAUGCCCCACCAUCCUGACUCACACGGAAGCACGGGUCUCUUCUCAAUCUUUGCUGCAUUUGGAAAAUGUUCCCUCCCAUCUCAGGC; result = 0.308
Strand = UUUGAGCUGUAGAGACUCAUGCUGGAUUCAAACUGAGAACCCUGGAAGGAAGGCCAGGCUAGUUUAGGGCUCAGCGCGUCUCACCAGAGCCCUUCCAUACUCUGUGACUC; result = 0.43
Strand = GGCCUACGCCAAAGCACAGGAUGGGGCGGGCAGGAAGCCCUCUCCCAAGAUCGAGUUGGCCGAGGAUGGAUGAUUGUGGCAGCAGAAGCCGUUGCAGCCCCACGUUGUGC; result = 0.523

Study 3
Target: Hepatocyte nuclear factor 3-alpha (Foxa1, Mus musculus, UniProt P35582, residues 1-468, full length assumed)
UniProt P35582, sequence (whole entry, looked up): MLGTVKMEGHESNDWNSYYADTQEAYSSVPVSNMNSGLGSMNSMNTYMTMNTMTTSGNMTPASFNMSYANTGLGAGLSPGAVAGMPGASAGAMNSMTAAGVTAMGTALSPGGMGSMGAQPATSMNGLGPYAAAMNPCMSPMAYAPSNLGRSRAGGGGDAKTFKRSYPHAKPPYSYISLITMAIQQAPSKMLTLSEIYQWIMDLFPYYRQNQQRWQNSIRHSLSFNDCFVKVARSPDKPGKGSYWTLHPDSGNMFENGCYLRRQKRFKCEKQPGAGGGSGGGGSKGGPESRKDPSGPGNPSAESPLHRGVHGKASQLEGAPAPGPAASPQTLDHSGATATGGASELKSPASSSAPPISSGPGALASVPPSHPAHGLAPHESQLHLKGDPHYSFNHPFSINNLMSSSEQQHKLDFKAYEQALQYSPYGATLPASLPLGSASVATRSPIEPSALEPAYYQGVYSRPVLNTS
Technique: EMSA with sequencing
Form: double-stranded DNA, one strand shown
Matrix: in vitro
Tested at: 10 and 20 nM
Notes: whole designed probe, mean of two concentrations, ends assumed
Relative to: negative control set to 0
Reading: higher = stronger binding
Quantity: normalised bound fraction
Shared flanks, not repeated: GTGAGCGGTGCCCATTGATGGGGAAC … TTTCACTGGGATCGTGGGGAC
Strand = GGACAGGATTAGAGAAGCAACGTAGAAGTTCAAATATTTCACCTACCTGTCAACAGATTAGTGTGTGTTAAGTCAATATCTTTGCCAGATTAGGCAATCTAAAAGATCGTGTTGTGCAATATATGGGACATACTTATACTACAGTTTTATCTGTTGTTTATTTGAGGTTCAAATTACACTGGCAGCCCTTCAT; result = 0.324 ratio
Strand = GGACTTTGATAATTTTCTTTTAATTCCACACATCTATGATATTTTATCTTCTTAGGTAATAAAGGTATTAGAACTCTTTTCTTCTGCATCTGTGTTTACATTGAGATGCCATAACTTTTGTAGTATATAATGAATTCAGAGAAAAGAATAAAATCTAAATATTAAATAAAATTATATATTTATACATGAAAAA; result = 0.339 ratio
Strand = ACAAAAATTCTTGAGCCATTTCCAGATACCGAATCTGACTCAGTGTTGGCAAAACCTACAAAATGAGTGACCAAGAAGGATAAACAAGTTTAGGTAATCTCTCTATAGACTGATTCATGATTTAAGTACATCAGTTAGCATTTAGCTTCATTTACCATCGTGTTTTAATGTCATTAAGAATGTAACTTCTTAG; result = 0.0431 ratio
Strand = ATACACATAAACCAAGAGAAACAAAATACAATATTTATGTGTATATCTTTCTCATTGAACTTCACATTGCTAGAAGTATTTTTCTAAAGACAATGTAAACATGTCATTTCACTACTAAAAATTTTTTAGTAGATAATATCAATTGCTTTAAGAATAAAACAATTTTTAAAATAATTATATGAAAAAAGTTCTC; result = 0.335 ratio
Strand = GGTCAGAGAATGCTAATCAGCCATGAAGTGGGCTTGCCATGACTCTGACACTGTATCTCCTGGTGCACTCTGCGGTAGGTGCATCTTTGCTGAGTAATTTCAAAGTGAACTTGACGGGAAAGGAGACCTTAGCAGTCCTACAAAGGCAATTTTGCAAGCTGTCTGGCTGTGGAATTAGTGGAATGTTTTCTCA; result = -0.0585 ratio
Strand = GCCAGGAAATGTAGTTCTTTAGCTGGACCCATTGCTGCTCCCCTCCCACAAATCAGTTTTTGTTAGAAAGAAGGGGAAGTGGATTTGGGGAAAGTAATTTCAGCAGCTAAACAGCAAGTACAAATCACACATTCAAAAAGTGTGTCCATAAAGGGAAGGAGAGAGATGAGATGATAGTTGGAAGGGGATGTGG; result = -0.056 ratio
Strand = CTTTGCAAAGCTATGCAAATTATAAAGCAATTCATTATGGTTAAGAAAAGAGTTTTTCCCAAAGAGCTGCAAATACTCACCAGTGACACAAAGTAATCTAAGACCCAAAGATGGAACCAAAAGATAGTTCTTGTCTTTAGAGGAAGAATATCCAAGATGCATTGGACAGAACAAATAATACCCTAGTGTGTTA; result = 0.224 ratio
Strand = TGATGATACGTTATAGCATTTCTCTGCTCTGTAAGAGAGGCACCAGGGTCGTGTGCTGGGTCTGGGGTTTGCACATCCGGTTCCATTCGCTGCTGTTGACTCTGGTGTCGGCCGCTGGTGAGCTGGCTGTAGCTGGTCACCTCTGGGTGGTTTCTGGGGCGGTCGCAGGCTGACTAACACACCAAAGGTCAGC; result = 0.000689 ratio

Study 4
Target: Histone acetyltransferase KAT6A, winged helix 2, GST fusion (KAT6A, Homo sapiens, UniProt Q92794, residues 85-181)
Technique: protein binding microarray
Form: double-stranded DNA, one strand shown
Matrix: in vitro
Tested at: not given
Notes: 8-mer, flanks averaged, mean of 2 arrays, mostly near background
Relative to: not given
Reading: higher = stronger binding
Quantity: E-score
Target sequence (chain): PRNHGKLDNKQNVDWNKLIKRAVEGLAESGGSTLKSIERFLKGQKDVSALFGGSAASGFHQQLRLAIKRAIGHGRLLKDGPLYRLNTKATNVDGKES
Strand = GTTACTCA; result = 0.0508
Strand = GAGTTCAA; result = 0.059
Strand = CCCTTTGC; result = 0.151
Strand = TACTAGTA; result = 0.114
Strand = ACTCTTGG; result = -0.0408
Strand = ACAGCACC; result = -0.00388
Strand = ACTGGGGC; result = 0.095
Strand = CCCCCCCG; result = 0.0225
Strand = ATCCACAA; result = 0.0858
Strand = AACCGGCT; result = 0.057
Strand = TATTTTCA; result = 0.0893
Strand = CCATAAAA; result = -0.0307
Strand = CCAGCCAG; result = -0.00647
Strand = ACGAGGAT; result = -0.0334
Strand = GATCTCAC; result = -0.0126
Strand = CAATCGAA; result = 0.0965
Strand = AAGTTCGC; result = 0.0576
Strand = CGGATGAC; result = 0.0513
Strand = ACCTGCCG; result = 0.201
Strand = GAGCGACC; result = 0.0105
Strand = CAAACTCA; result = 0.133
Strand = AGGTAAGA; result = -0.0242
Strand = ACCTAAAT; result = -0.0825
Strand = CCGTTTGC; result = 0.00296
Strand = ACGGTAGG; result = -0.201

Study 5
Target: Fragile X messenger ribonucleoprotein 1, C-terminal low-complexity region (Fmr1, Mus musculus, UniProt P35922)
Technique: RNA Bind-n-Seq
Form: RNA
Matrix: in vitro
Tested at: 200 nM
Notes: whole 134-nt RNA, ends assumed
Added: 150 mM KCl
Relative to: input library
Reading: higher = stronger binding
Quantity: log2 enrichment
Shared flanks, not repeated: GGGAGUUCUACAGUCCGACGAUC … UGGAAUUCUCGGGUGUCAAGG
Strand = UGGGAUGUGGAUUUUGUUUAUUUUUUUAGCUCAUUUCCAGGGGUGGGAAUUUUUUUUUAAUAUGUGUCAUGAAUAAAGUUGUUUUUGAAA; result = -0.525
Strand = UGUGGGUCCUCCUGCACCUGGUGCUGGCCUUCCUGUCCCUGCGCUCUUUGACAGCCUCCUGACCUGUAGGACGAGGGAUUCCUUGUUCUU; result = -0.718
Strand = UAACUUUAGAGGAGGAUCUGUUGGAUAUGGCAGUGGACGUGGAUUUGGGGAUGGCUAUAAUGGGUAUGGAGGAGGACCUGGAGGUGGCAA; result = 0.33
Strand = UCCUGUGCUACACAUCGUAUGUACCGAAUCGGGGUUUUUGGGGAGGGGUUUUUUUGGGGAAAGUAUUAUGUUACGCCGUUCGGAUCUGCA; result = 0.725
Strand = AAGUCCUGUGCUACACAUCGUAUGUACCGAAUCGGAAAAAGGAAAGGAAAAAAAGGAAAGUAUUAUGUUACGCCGUUCGGAUCUGCACUU; result = -0.82
Strand = AUUUGUACACAGACAGGGAAACUGGCAAGCUGAAGGGAGAGGCAACGGUCUCUUUUGAUGACCCACCUUCAGCUAAAGCAGCUAUUGACU; result = -0.0132
Strand = GUCCUGUGCUACACAUCGUAUGUACCGAAUCGGGAAAAAGGGGAAAAAGGAAAAAGGGAAAGUAUUAUGUUACGCCGUUCGGAUCUGCAC; result = -0.166
Strand = UCAAGUCCUGUGCUACACAUCGUAUGUACCGAAUCGGUUUGGUUUGGAAAAAGGAAAGUAUUAUGUUACGCCGUUCGGAUCUGCACUUCC; result = -0.526
Strand = GUCCUGUGCUACACAUCGUAUGUACCGAAUCGGGUUUUUGGGUUUGGGUUUUUUUGGGAAAGUAUUAUGUUACGCCGUUCGGAUCUGCAC; result = -0.0492
Strand = CACAGACAACACGCACCCACACAGAUACAGAGGGAAGGGGUUGGGAUGGGGACAGGGUGCACAGCAGGGCGGGGUAGGACCCCAGCCCCU; result = 1.23
Strand = CAAGUCCUGUGCUACACAUCGUAUGUACCGAAUCGGGGAAAGGGGAAAGGAAAGGAAAGUAUUAUGUUACGCCGUUCGGAUCUGCACUUC; result = -0.25
Strand = CAAGUCCUGUGCUACACAUCGUAUGUACCGAAUCGGGUUUUUUUGGGUGGGAGGGAAAGUAUUAUGUUACGCCGUUCGGAUCUGCACUUC; result = 1.07
Strand = UCCUGUGCUACACAUCGUAUGUACCGAAUCGGGGAAAAAAAGGGGUUUGGGGAAAGGGGAAAGUAUUAUGUUACGCCGUUCGGAUCUGCA; result = 0.678
Strand = ACCAUGCAGGUGGGCAUCUUUGGGAAGUGGGGCAAGGGGGGGAUAGGGAGGGAAAUAACACUUUGGGAACAGGUGGUCCCAGGUCGUUUC; result = 0.622
